Measurements of several laboratories.
Every numbered part comes from another study and shows a few of its results, in no order. Substitutions count along the parent as printed.

Series 1 — method: protein binding microarray; molecule type: double-stranded DNA, one strand shown; matrix: in vitro; concentration: not given; reference: not given; reading: higher = stronger binding
Target: Histone acetyltransferase KAT6A, winged helix 1, GST fusion (KAT6A, Homo sapiens, UniProt Q92794, residues 1-85)
Setting: 8-mer, flanks averaged, mean of 2 arrays, mostly near background
Construct (chain): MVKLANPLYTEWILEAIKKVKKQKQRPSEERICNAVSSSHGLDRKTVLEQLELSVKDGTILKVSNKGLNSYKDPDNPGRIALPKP
Oligonucleotide	E-score
GTGCTAAA	-0.17
ATGTCCAG	-0.0238
CTTTCTGA	-0.186
AGGTTTTC	-0.101
TACCCGGA	0.238
ACCCTGAA	-0.102
ATCTCCAA	-0.284
CTGAAGCA	-0.165
ATCTCCGA	0.0343
CAATAGGC	0.0451
CAGCTGGG	-0.197
AAAGGATT	-0.245

Series 2 — target: CCND2, cyclin fold, Cln2 fusion (human); method: yeast growth competition, sequencing; matrix: yeast; setting: weak parent motif; reference: not given; reading: higher = stronger binding
Starting sequence: MASTL docking peptide (human); PMIAKNLMCELDE
Change	normalised enrichment score
E10Y	0.332
K5A	-0.0269
L11T	-0.0223
I3S	-0.2
C9Q	0.0328
D12Q	0.225
D12E	0.0168
K5I	0.0414
L7Q	-0.13
C9N	-0.267
D12P	-0.114

Series 3 — method: protein-binding microarray; molecule type: double-stranded DNA, one strand shown; matrix: in vitro; concentration: 940 nM top; setting: 60-bp whole probe; together with: salmon DNA 0.4 mg/ml; reference: random background probes; reading: higher = stronger binding; constant ends, left off below: GCCTAGCAC … GTCTTGATTCGCTTGACGCTGCTG
Target: Interferon regulatory factor 5, full length, phosphomimetic (IRF5, Homo sapiens, UniProt Q13568-2, residues 1-514, S451D/S453D/S456D/S462D)
Oligonucleotide	fitted relative affinity
TCAGTTCCCTATTTAAGACTGTGCTAG	0.691 z-score
CTAGATATCAGTCTCGATTAGTGCTAG	2.85 z-score
GACGGTTTCCTTATCCTGGCGTGCTAG	2.38 z-score
TTAGGACTGGACTTTCGGTGAGTGCTA	1.31 z-score
TTAGGGTTCCTTTTCCTTTAGTGCTAG	0.071 z-score
TACAATTTGCTTTAGTCATTGTGCTAG	-0.36 z-score
TTGGGTATCCTTTTCCTTTAGTGCTAG	0.66 z-score
GACGATATCAGTCTCGAGTCGTGCTAG	2.18 z-score
TTAGATCTCAGTGTCGATTAGTGCTAG	0.315 z-score
GGTGCCTCGGGTTCAGGGAGGTGCTAG	-0.157 z-score
GACGGTTTCGGGTATCGAGACGTGCTA	9.06 z-score
GACGTACTGGGGTTTCGAGACGTGCTA	1.9 z-score

Other studies, line by line
Substance	target	assay	system	setting	scale	quantity	result
PhoQ, residues 284 288 289 292 302 303 GLASVI	PhoP, residues 12 14 15 18 19 YHFSH (Escherichia coli, UniProt P23836)	Sort-seq, item: YFP reporter	E. coli	PhoQ-PhoP variant library, together with: 10 µM Mg2+	reference: high Mg2+ state, higher = stronger signaling	fold induction	1.09

A few entries again (series 2):
Change	normalised enrichment score
L11T	-0.0223
I3S	-0.2
C9Q	0.0328
D12Q	0.225
